{"data": "Assay results pooled from the literature", "note": "A part holds a random share of what one study measured."}
{"data": "Series 1", "target": "RNA binding protein fox-1 homolog 2, RRM domain, GST-SBP tag (RBFOX2, Homo sapiens, UniProt O43251-10, residues 100-194)", "technique": "RNA Bind-n-Seq", "form": "RNA", "matrix": "in vitro", "concentration": "365 nM", "notes": "natural RNA segment, single round, ends assumed", "relative to": "no-protein control", "direction": "higher = stronger binding", "all sequences stand within": "GGGAGUUCUACAGUCCGACGAUC … UGGAAUUCUCGGGUGCCAA", "Construct (chain)": "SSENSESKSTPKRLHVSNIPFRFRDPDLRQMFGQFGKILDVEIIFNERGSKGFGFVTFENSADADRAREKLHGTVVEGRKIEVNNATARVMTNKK"}
{"Strand": "GUCUAAAGGUUUCUAAGUGUAUCUUGCAAGAGAAUCUCCACUCCAGCAAUCACAGCUCAAAUUGUGGACAAUCAAACCAAAGCCUUCAUUUAAGUUUGGCCACAUUUCAA", "RBNS enrichment (R)": 0.564}
{"Strand": "UAAGGAAUUUUAAUGUUACUUUUUGAGUAACGACUGAGUUACCAGCAUUCUUGAUUCUUAGCGCUUUCGUGGUGCGUGUUUAUGAGAUAUUAGAACAGCGGAGGCUCUAA", "RBNS enrichment (R)": 0.284}
{"Strand": "CCCUGCACCUCGCACAGAACCAAGAGCCACCAGCCUCCUGAUGGCAGGGGCCUAGCCCUGGGCAUAUUCAUUUGUUUGCUUCUCUGGGACAGUAUGCCCUGCCUUCCCUG", "RBNS enrichment (R)": 0.886}
{"Strand": "AGAUGUCCCACAUGGAAGACGCUAUUCCAGGAUCUUUAAAUUUCCAUGGAUGCAUAUAGGAUGUUUGGGAGCAUCAUCCGUGAAGAAAAAAUCAAUUAAAUCAUUGUGUU", "RBNS enrichment (R)": 0.601}
{"Strand": "UACAGACUGUCCCCAACUUAACAGUGGUUCAACUUAAACCAUGUUUCAACUUUACAAUUGGUCUGUUGGGGUAUUAAAUGAAUUUGUGACUUAGGAUAUUUUCAUUUAUG", "RBNS enrichment (R)": 0.327}
{"Strand": "GGAGUGAAAUAACCAAGUCAAAACCAUGUACUAUCUCCUUGGGGGUUAGGGAUGCUAAGAAGAGCCCACAAAUAGAGGAUUACUCUUCCCCUGAAUCUCUAAACUCAGAA", "RBNS enrichment (R)": 0.249}
{"Strand": "CCUUCAGGUCUGGGGCCAGGAGUGGGACCCACCAUUUGUGGGGAAAGUAGCAUUCCUCCACCUCAGGCCUUGGGUAGAUUUGGCAAAAGAACAGGAGCAGCAUAGGCUGU", "RBNS enrichment (R)": 0.449}
{"Strand": "UUCCAGGGAUUACAUGGAGGAUCACCGAUGUCUUUUCUCAUGCCCACCAGAUAUCAAGUACUCAUGACUUGACUCCCAAAUGCGCCGUUACAGGGCUAAGUUAAAGCCAG", "RBNS enrichment (R)": 0.418}
{"Strand": "ACCAUAUAAUAAAAAUACUUAACUAAAUUGACAGUUAUAAAAAUAAAUCAGUGAAAUGUACCUUAUACUUUAAUAAAAAAUGUUUUCAGAAAUAGAUAAGUGAAAGCUGA", "RBNS enrichment (R)": 0.464}
{"Strand": "CUGAGUUUUGCAAGCGCUCAGGGUUUUCAUACUUAUUUCAUAUAACACCCAUUUCUAUUCAUUUCUGUAUAAAGAACAGUACAGAACAGUAUCGGGAUCUUUGUUGGUUU", "RBNS enrichment (R)": 5.61}
{"Strand": "UCCAGAGGAGUCCUUCCCGAGAGCUGGCAAGUCUUUGAGCUGUAGCUUGAAUGGGCUGUCGGGGGACACUGGAAGGGAGUAAGCAGCUUUUUGAAAAUGUUAAUACAUUA", "RBNS enrichment (R)": 2.5}
{"Strand": "UGAGACCCUAGAGACCAGCGAAGGGAGAAGUUGGGAAGCUACGUUCUGUUGGCCACCAGACUUGCAUUUCAGCCUCUGUCAUAAUGCUCUGCCCUCCCUCCCCCGAAGGU", "RBNS enrichment (R)": 0.519}
{"data": "Series 2", "target": "Histone acetyltransferase KAT6A, winged helix 1, GST fusion (KAT6A, Homo sapiens, UniProt Q92794, residues 1-85)", "technique": "protein binding microarray", "form": "double-stranded DNA, one strand shown", "matrix": "in vitro", "concentration": "not given", "notes": "8-mer, flanks averaged, mean of 2 arrays, mostly near background", "relative to": "not given", "direction": "higher = stronger binding", "Construct (chain)": "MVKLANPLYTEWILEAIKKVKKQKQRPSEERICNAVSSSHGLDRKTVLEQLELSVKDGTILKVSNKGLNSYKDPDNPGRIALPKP"}
{"Strand": "GGCTAGAA", "E-score": -0.000955}
{"Strand": "TGCTAACA", "E-score": -0.0555}
{"Strand": "ACATCAAA", "E-score": -0.203}
{"Strand": "AGTAGACG", "E-score": -0.0552}
{"Strand": "ACAGTGTG", "E-score": -0.15}
{"Strand": "ATTTGCGA", "E-score": -0.161}
{"Strand": "ACTATACG", "E-score": 0.0994}
{"Strand": "AGAGGTGA", "E-score": -0.136}
{"Strand": "CAGAACAC", "E-score": -0.0729}
{"Strand": "AGTTTTTC", "E-score": -0.0327}
{"Strand": "AGCCCCCT", "E-score": -0.0918}
{"Strand": "GTATGTCA", "E-score": -0.12}
{"Strand": "CGCGGCGA", "E-score": 0.445}
{"Strand": "TACCCACA", "E-score": -0.0945}
{"Strand": "CCACGCGG", "E-score": 0.327}
{"Strand": "CCCGGTCC", "E-score": 0.226}
{"Strand": "AGAAGGAG", "E-score": -0.0871}
{"Strand": "ATGACGTA", "E-score": -0.202}
{"data": "Series 3", "target": "RING finger protein unkempt homolog, zinc fingers 1-6, SBP tag (UNK, Homo sapiens, UniProt Q9C0B0, residues 30-357)", "technique": "RNA Bind-n-Seq", "form": "RNA", "matrix": "in vitro", "concentration": "100 nM", "notes": "RNA with constant flanks, vertebrate orthologous sites, ends assumed", "relative to": "input RNA pool", "direction": "higher = stronger binding", "all sequences stand within": "GGGAGUUCUACAGUCCGACGAUC … CAACAGAGGAUUGAGCAUCA", "UniProt Q9C0B0, sequence (30-357, looked up)": "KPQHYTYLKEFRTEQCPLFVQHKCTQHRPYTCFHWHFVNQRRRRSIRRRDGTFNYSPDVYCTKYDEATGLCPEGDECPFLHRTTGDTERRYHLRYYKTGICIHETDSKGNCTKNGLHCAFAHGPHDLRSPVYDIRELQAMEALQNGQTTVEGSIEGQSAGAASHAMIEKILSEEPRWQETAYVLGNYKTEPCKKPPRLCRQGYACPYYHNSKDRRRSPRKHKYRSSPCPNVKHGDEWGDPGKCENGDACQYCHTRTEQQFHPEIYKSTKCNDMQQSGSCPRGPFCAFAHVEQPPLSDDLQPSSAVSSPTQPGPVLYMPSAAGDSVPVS"}
{"Strand": "CCGAAAGGCCAAAUUCCCUCCUCCCUUCUACUGCUUCUACCAACUGGAAGCACAGAAAACUAGAAUUUCAUUUAUUUUGUUUUUAAAAAAAUAUAUGUUGAUUUCUUGUAACAUCCAAUA", "bound/input enrichment": "0.461 ratio"}
{"Strand": "AACCUAAAAUUACAGCAAAAGAGCCAAGCAGUAGAAUUGUUUUUUUCAUAUAUGUAAAAAUAAUUACAUCCAGACUUUCCUUAUUCAAUUUUAAAAAUAAAAAAAUACCUCAGUGCUAUG", "bound/input enrichment": "0.77 ratio"}
{"Strand": "UACACCAGAUACUUUUAACUGUUUUAAAGAUACAAAUAAGCUUUGCUUUUUGCAUUAAAAUAGAAUACUUUUAUAUUAUAAGUGCUUCAAAUGUGUGGAAUGUUAGUUUGCUCUUACAAU", "bound/input enrichment": "0.29 ratio"}
{"Strand": "UCGUACCCCACCCUUGCGAGAGAGGGUGGGGAGAGCAGGUGACCCUCAGCUGUUCUGAUUUAGGAUCUUUUUUUCUUUCAUUUUAAGAAUUACUGUAUUUAUUAUGACGAUGGUGACUCC", "bound/input enrichment": "0.787 ratio"}
{"Strand": "GGAGCUUGUGUUUGGCUGCACCUGCGUCAUAAGCUGCUACAACCAGAAUAAAGAGUUUCCGAGCCUGCGUCUCGCUUAGGUGCAUGGGAGUGGGCUUUGCGCACAGGGCUUGGAGCUGAC", "bound/input enrichment": "0.443 ratio"}
{"Strand": "GAGCUAAAGAAGUUAGCAUCUUUAUUUUUGUAUCAAAGAUAAAGGUUAUUUUGAAAUUAUUAGGAUUUUUACACAACGCUGAAGUCUGUUGCUUUUGUAAACAAAUUGUUUGAUCUUAGG", "bound/input enrichment": "1.52 ratio"}
{"Strand": "GCAAUGAAAAAGCAGCCCUUCUCCCAGUCCCCUUUUCACUAGGAGAUACAAACAGUACCAUAGAAGAGCAAUUAAAUUCAAUAAAUUUAUCUUUUCAGGAUGAUCCAGACUCCAGUACCA", "bound/input enrichment": "1.01 ratio"}
{"Strand": "AAGUAUCCCGGUUUACUGUGUUGAGUUGGCAUUGUACAGAAAUUAACAGCCAUAUUGGUCUAGAAACGUUAAACUUAAUUUUUUUCCAUUUGUACAGGGGUAACGCACUGUAUUAAAUAU", "bound/input enrichment": "0.821 ratio"}
{"Strand": "CUCCUCUUAAUCCCAUCUCAUCUGUUUCAUAGUGCUGAAAUUCUAUCUUCAGCAUUAUUUUUAGUGAACUUGCUCCAACUCUAGAGAAACUUCCAGUAUGGAUACUGUGAGCUGUAUGGA", "bound/input enrichment": "0.622 ratio"}
{"Strand": "UCCCGCCUGUGGCAGCAUCCUUGGGCCAGGGCCACAGCCGAUAUCUUAUACGACCUGUGUUUAGGACAUUUUUUAAAUCAUUGUGUCUAAGCAUCUCAGAGUCAAGUGUGCUUCUUUGCA", "bound/input enrichment": "0.31 ratio"}
{"Strand": "CAGGGUAUACCUGUGGGGCACUGCUGGCCGCUUAUUGUUGUUUAAUUUGUGACCUUGACAUUCUAGAUAGGCUUUUUUUUUUUAAUUUAAAGAUAGUAAGACCUAAUUCACUAAAAUUUA", "bound/input enrichment": "0.824 ratio"}
{"data": "Other studies, line by line"}
{"Substance": "PhoQ, residues 284 288 289 292 302 303 SSLVEF", "target": "PhoP, residues 12 14 15 18 19 NYFTV (Escherichia coli, UniProt P23836)", "assay": "Sort-seq, item: YFP reporter", "system": "E. coli", "setting": "PhoQ-PhoP variant library, with: 10 µM Mg2+", "how to read": "relative to: high Mg2+ state, higher = stronger signaling", "endpoint": "fold induction", "result": 1.8}
{"note": "Repeated from above (other studies, line by line):"}
{"Substance": "PhoQ, residues 284 288 289 292 302 303 SSLVEF", "target": "PhoP, residues 12 14 15 18 19 NYFTV (Escherichia coli, UniProt P23836)", "assay": "Sort-seq, item: YFP reporter", "system": "E. coli", "setting": "PhoQ-PhoP variant library, with: 10 µM Mg2+", "how to read": "relative to: high Mg2+ state, higher = stronger signaling", "endpoint": "fold induction", "result": 1.8}
